Measured values from different studies.
Parts stem from different laboratories: compare values within a part only.
Sequence of UniProt P07949 (whole entry, unmodified, looked up): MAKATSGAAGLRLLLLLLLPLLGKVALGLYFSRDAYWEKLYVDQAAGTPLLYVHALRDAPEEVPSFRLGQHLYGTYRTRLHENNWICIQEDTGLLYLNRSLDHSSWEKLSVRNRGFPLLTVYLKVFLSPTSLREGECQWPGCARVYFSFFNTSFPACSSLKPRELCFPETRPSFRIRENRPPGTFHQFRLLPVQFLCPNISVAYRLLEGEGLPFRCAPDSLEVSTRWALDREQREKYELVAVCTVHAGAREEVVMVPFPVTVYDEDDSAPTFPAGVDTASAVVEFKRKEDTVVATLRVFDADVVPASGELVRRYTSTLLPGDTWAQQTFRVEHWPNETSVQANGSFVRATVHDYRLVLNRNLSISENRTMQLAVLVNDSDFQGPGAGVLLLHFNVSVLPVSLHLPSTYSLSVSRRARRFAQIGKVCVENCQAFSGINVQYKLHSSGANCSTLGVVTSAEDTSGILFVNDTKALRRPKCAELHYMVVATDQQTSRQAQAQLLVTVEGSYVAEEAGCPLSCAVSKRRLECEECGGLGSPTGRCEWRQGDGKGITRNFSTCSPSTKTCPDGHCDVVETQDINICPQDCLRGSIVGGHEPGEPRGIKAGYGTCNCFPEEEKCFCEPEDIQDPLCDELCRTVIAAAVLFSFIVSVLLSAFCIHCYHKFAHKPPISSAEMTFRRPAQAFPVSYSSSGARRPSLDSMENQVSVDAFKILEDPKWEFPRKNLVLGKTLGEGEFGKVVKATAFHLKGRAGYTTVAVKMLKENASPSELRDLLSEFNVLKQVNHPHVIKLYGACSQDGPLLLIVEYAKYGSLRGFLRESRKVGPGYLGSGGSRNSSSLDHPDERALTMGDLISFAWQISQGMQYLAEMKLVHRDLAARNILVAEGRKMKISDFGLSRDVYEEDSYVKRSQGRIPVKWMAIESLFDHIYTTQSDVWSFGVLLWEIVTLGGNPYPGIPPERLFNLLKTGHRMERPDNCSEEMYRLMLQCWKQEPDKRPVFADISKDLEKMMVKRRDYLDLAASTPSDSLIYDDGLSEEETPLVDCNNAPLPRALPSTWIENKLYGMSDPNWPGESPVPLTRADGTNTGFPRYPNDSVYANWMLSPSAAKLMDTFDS
Sequence of UniProt P00519 (whole entry, unmodified, looked up): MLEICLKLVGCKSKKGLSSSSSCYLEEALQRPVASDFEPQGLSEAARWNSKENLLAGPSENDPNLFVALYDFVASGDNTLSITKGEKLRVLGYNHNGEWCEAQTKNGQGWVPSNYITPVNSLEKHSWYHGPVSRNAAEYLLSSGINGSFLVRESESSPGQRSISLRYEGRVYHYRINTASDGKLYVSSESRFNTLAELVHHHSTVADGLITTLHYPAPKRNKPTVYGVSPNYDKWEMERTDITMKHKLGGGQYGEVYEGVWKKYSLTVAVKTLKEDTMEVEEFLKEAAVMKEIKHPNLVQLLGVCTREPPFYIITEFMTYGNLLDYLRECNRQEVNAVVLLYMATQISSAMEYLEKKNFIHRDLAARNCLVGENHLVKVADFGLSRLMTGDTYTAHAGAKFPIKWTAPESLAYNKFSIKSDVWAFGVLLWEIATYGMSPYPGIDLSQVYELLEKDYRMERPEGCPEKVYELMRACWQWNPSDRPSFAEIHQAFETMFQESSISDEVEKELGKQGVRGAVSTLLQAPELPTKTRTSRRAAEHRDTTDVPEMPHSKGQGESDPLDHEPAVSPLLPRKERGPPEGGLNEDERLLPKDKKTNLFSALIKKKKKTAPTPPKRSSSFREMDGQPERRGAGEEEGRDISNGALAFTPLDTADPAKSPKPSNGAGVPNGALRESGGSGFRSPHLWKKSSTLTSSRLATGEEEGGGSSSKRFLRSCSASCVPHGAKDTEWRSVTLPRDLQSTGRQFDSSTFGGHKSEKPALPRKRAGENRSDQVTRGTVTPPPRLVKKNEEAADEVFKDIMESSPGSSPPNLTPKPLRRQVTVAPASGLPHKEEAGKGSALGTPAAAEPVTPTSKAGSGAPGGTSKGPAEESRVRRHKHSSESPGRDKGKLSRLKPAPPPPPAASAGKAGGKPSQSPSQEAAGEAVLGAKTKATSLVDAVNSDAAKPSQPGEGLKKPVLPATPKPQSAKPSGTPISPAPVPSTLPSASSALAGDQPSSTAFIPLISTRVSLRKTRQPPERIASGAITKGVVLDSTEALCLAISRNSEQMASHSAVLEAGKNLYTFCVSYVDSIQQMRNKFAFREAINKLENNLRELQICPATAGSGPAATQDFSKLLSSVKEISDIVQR
Sequence of UniProt O75676 (whole entry, looked up): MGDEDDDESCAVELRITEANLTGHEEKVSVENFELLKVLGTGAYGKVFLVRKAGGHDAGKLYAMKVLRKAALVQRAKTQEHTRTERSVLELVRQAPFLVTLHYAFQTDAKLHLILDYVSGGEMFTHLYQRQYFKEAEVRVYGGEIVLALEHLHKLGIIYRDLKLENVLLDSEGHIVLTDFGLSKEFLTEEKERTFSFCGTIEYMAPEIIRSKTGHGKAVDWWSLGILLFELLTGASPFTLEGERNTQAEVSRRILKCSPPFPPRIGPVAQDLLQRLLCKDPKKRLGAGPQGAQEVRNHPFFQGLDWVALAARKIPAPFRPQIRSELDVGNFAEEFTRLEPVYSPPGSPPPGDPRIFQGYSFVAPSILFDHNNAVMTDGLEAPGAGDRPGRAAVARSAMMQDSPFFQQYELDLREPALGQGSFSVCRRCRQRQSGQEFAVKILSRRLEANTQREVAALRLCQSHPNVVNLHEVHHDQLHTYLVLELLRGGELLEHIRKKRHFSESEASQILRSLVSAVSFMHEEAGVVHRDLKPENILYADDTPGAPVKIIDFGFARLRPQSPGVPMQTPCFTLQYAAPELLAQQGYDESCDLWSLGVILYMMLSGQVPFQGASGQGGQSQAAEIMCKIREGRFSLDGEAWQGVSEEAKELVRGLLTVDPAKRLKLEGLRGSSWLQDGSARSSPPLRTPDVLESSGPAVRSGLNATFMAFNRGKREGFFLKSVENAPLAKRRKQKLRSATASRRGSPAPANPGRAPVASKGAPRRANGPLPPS
Sequence of UniProt P49841 (whole entry, looked up): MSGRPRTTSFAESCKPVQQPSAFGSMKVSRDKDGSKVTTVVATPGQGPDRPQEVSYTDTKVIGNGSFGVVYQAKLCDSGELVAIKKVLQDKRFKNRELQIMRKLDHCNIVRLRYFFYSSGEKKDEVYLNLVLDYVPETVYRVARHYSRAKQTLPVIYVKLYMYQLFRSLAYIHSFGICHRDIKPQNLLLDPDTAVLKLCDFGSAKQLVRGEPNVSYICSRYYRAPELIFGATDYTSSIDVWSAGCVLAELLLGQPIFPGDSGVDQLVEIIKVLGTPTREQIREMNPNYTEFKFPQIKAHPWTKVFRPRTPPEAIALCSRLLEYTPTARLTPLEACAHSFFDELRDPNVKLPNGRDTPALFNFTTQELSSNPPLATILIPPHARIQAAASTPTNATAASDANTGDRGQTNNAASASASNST

Sample 1 — endpoint: inhibition
SMILES: Cc1ccc(O)c(C)c1-c1cnc2[nH]c(-c3cnc(N4CCC(CCN5CCN(c6ccc(NC7CCC(=O)NC7=O)cc6F)CC5)CC4)nc3)cc2c1C#N (stereo not drawn)
Target: Membrane-associated tyrosine- and threonine-specific cdc2-inhibitory kinase (PKMYT1, Homo sapiens, UniProt Q99640)
Residues (Q99640 1-499): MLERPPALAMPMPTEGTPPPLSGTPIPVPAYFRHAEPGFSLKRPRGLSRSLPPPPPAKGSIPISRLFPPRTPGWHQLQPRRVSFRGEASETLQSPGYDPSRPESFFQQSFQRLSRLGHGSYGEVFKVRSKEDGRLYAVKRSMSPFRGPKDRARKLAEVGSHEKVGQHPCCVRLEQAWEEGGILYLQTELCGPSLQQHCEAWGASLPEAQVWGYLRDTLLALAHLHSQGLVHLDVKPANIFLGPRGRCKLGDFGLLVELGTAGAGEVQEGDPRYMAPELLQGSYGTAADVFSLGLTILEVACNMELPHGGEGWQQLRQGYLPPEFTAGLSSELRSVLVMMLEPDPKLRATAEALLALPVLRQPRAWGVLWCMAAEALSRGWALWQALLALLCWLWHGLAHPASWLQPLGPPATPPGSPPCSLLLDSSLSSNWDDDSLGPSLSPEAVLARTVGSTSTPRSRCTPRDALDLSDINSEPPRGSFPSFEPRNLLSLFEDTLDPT
cell-free assay, inhibitor, TR-FRET; 51 pM: -5.08%
cell-free assay, inhibitor, TR-FRET; 1.37 nM: 16.5%
0.01235 µM: 89.7%
cell-free assay, inhibitor, TR-FRET; 152 pM: -4.42%
0.00412 µM: 56.9%
0.03704 µM: 96.6%
0.1111 µM: 98.7%
0.000152 µM: -4.59%
cell-free assay, inhibitor, TR-FRET; 4.12 nM: 58.1%
cell-free assay, inhibitor, TR-FRET; 1 µM: 99.8%

Sample 2 — endpoint: remaining binding
Structure (SMILES): COc1cc(-c2nc3ccc(C(=O)NCCCN4CCN(c5cccc(C)c5C)CC4)cc3n2C2CCC2)cc(OC)c1OC
Proto-oncogene tyrosine-protein kinase receptor Ret (RET, Homo sapiens, UniProt P07949, M918T); binding, competition with immobilised ligand; 1 µM: 85%
MAP kinase-activated protein kinase 5 (MAPKAPK5, Homo sapiens, UniProt Q8IW41); binding, competition with immobilised ligand; 1 µM: 75%
Ribosomal protein S6 kinase alpha-4, N-terminal kinase domain (RPS6KA4, Homo sapiens, UniProt O75676); binding, competition with immobilised ligand; 1 µM: 100%
Dual specificity tyrosine-phosphorylation-regulated kinase 2 (DYRK2, Homo sapiens, UniProt Q92630); binding, competition with immobilised ligand; 1 µM: 76%
FLT3 ITD D835V human; KINOMEscan; 1000 nM; relative to: DMSO control: 89%
Serine/threonine-protein kinase MRCK alpha (CDC42BPA, Homo sapiens, UniProt Q5VT25); binding, competition with immobilised ligand; 1 µM: 100%
Serine/threonine-protein kinase WNK2 (WNK2, Homo sapiens, UniProt Q9Y3S1); binding, competition with immobilised ligand; 1 µM: 86%
Inhibitor of nuclear factor kappa-B kinase subunit epsilon (IKBKE, Homo sapiens, UniProt Q14164); binding, competition with immobilised ligand; 1 µM: 71%
Dual specificity mitogen-activated protein kinase kinase 2 (MAP2K2, Homo sapiens, UniProt P36507); binding, competition with immobilised ligand; 1 µM: 89%
Phosphatidylinositol 4,5-bisphosphate 3-kinase catalytic subunit gamma isoform (PIK3CG, Homo sapiens, UniProt P48736); binding, competition with immobilised ligand; 1 µM: 87%
Proto-oncogene tyrosine-protein kinase receptor Ret (RET, Homo sapiens, UniProt P07949); binding, competition with immobilised ligand; 1 µM: 100%
Casein kinase I isoform epsilon (CSNK1E, Homo sapiens, UniProt P49674); binding, competition with immobilised ligand; 1 µM: 99%
Glycogen synthase kinase-3 beta (GSK3B, Homo sapiens, UniProt P49841); binding, competition with immobilised ligand; 1 µM: 83%
Ribosomal protein S6 kinase alpha-1, N-terminal kinase domain (RPS6KA1, Homo sapiens, UniProt Q15418); binding, competition with immobilised ligand; 1 µM: 96%
Epidermal growth factor receptor (EGFR, Homo sapiens, UniProt P00533, G719C); binding, competition with immobilised ligand; 1 µM: 86%
Dual specificity tyrosine-phosphorylation-regulated kinase 1B (DYRK1B, Homo sapiens, UniProt Q9Y463); binding, competition with immobilised ligand; 1 µM: 69%
Serine/threonine-protein kinase D2 (PRKD2, Homo sapiens, UniProt Q9BZL6); binding, competition with immobilised ligand; 1 µM: 100%
Serine/threonine-protein kinase WNK3 (WNK3, Homo sapiens, UniProt Q9BYP7); binding, competition with immobilised ligand; 1 µM: 98%
Protein kinase C eta type (PRKCH, Homo sapiens, UniProt P24723); binding, competition with immobilised ligand; 1 µM: 100%
Tyrosine-protein kinase JAK1, JH2 (JAK1, Homo sapiens, UniProt P23458); binding, competition with immobilised ligand; 1 µM: 88%
Protein kinase C epsilon type (PRKCE, Homo sapiens, UniProt Q02156); binding, competition with immobilised ligand; 1 µM: 100%
Calcium/calmodulin-dependent protein kinase type 1G (CAMK1G, Homo sapiens, UniProt Q96NX5); binding, competition with immobilised ligand; 1 µM: 86%
Serine/threonine-protein kinase 35 (STK35, Homo sapiens, UniProt Q8TDR2); binding, competition with immobilised ligand; 1 µM: 93%
Dual specificity protein kinase CLK2 (CLK2, Homo sapiens, UniProt P49760); binding, competition with immobilised ligand; 1 µM: 96%
Mitogen-activated protein kinase 14 (MAPK14, Homo sapiens, UniProt Q16539); binding, competition with immobilised ligand; 1 µM: 92%

Sample 3 — concentration: 1 µM; endpoint: remaining binding
SMILES: CC[C@@]1(c2ccccc2)C2=C(CC(C)(C)CC2=O)Nc2n[nH]cc21
Tyrosine-protein kinase SYK (SYK, Homo sapiens, UniProt P43405); kinase binding, KINOMEscan; relative to: DMSO control: 100%
Mast/stem cell growth factor receptor Kit (KIT, Homo sapiens, UniProt P10721, T670I/V559D); binding, competition with immobilised ligand: 83%
Cyclin-dependent kinase 5 (CDK5, Homo sapiens, UniProt Q00535); binding, competition with immobilised ligand: 100%
Tyrosine-protein kinase ABL1, phosphorylated (ABL1, Homo sapiens, UniProt P00519); kinase binding, KINOMEscan; relative to: DMSO control: 80%
Phosphatidylinositol 3-kinase C2 domain-containing subunit gamma (PIK3C2G, Homo sapiens, UniProt O75747); kinase binding, KINOMEscan; relative to: DMSO control: 92%
Serine/threonine-protein kinase TNNI3K (TNNI3K, Homo sapiens, UniProt Q59H18); binding, competition with immobilised ligand: 98%
Glycogen synthase kinase-3 alpha (GSK3A, Homo sapiens, UniProt P49840); kinase binding, KINOMEscan; relative to: DMSO control: 8.5%
Bone morphogenetic protein receptor type-2 (BMPR2, Homo sapiens, UniProt Q13873); binding, competition with immobilised ligand: 97%
Phosphatidylinositol 4,5-bisphosphate 3-kinase catalytic subunit alpha isoform (PIK3CA, Homo sapiens, UniProt P42336, Q546K); binding, competition with immobilised ligand: 86%
Ribosomal protein S6 kinase alpha-2, C-terminal kinase domain (RPS6KA2, Homo sapiens, UniProt Q15349); binding, competition with immobilised ligand: 78%
Cyclin-dependent kinase 14 (CDK14, Homo sapiens, UniProt O94921); binding, competition with immobilised ligand: 100%
Hepatocyte growth factor receptor (MET, Homo sapiens, UniProt P08581, M1250T); kinase binding, KINOMEscan; relative to: DMSO control: 100%
Tyrosine-protein kinase ABL1, non-phosphorylated (ABL1, Homo sapiens, UniProt P00519, F317L); kinase binding, KINOMEscan; relative to: DMSO control: 100%
Phosphatidylinositol 4,5-bisphosphate 3-kinase catalytic subunit delta isoform (PIK3CD, Homo sapiens, UniProt O00329); kinase binding, KINOMEscan; relative to: DMSO control: 100%
Receptor-type tyrosine-protein kinase FLT3 (FLT3, Homo sapiens, UniProt P36888, K663Q); kinase binding, KINOMEscan; relative to: DMSO control: 80%
Serine/threonine-protein kinase D3 (PRKD3, Homo sapiens, UniProt O94806); kinase binding, KINOMEscan; relative to: DMSO control: 95%
Mast/stem cell growth factor receptor Kit (KIT, Homo sapiens, UniProt P10721, D816H); binding, competition with immobilised ligand: 100%
Dual specificity protein kinase CLK4 (CLK4, Homo sapiens, UniProt Q9HAZ1); binding, competition with immobilised ligand: 96%
Serine/threonine-protein kinase Nek6 (NEK6, Homo sapiens, UniProt Q9HC98); kinase binding, KINOMEscan; relative to: DMSO control: 95%
Insulin receptor-related protein (INSRR, Homo sapiens, UniProt P14616); binding, competition with immobilised ligand: 100%
Receptor-interacting serine/threonine-protein kinase 4 (RIPK4, Homo sapiens, UniProt P57078); kinase binding, KINOMEscan; relative to: DMSO control: 97%
Ribosomal protein S6 kinase alpha-4, C-terminal kinase domain (RPS6KA4, Homo sapiens, UniProt O75676); kinase binding, KINOMEscan; relative to: DMSO control: 100%
Tyrosine-protein kinase Yes (YES1, Homo sapiens, UniProt P07947); kinase binding, KINOMEscan; relative to: DMSO control: 100%

Sample 4 — effect on: thermal unfolding; method: differential scanning fluorimetry; concentration: 5.5 µM; direction: higher = more unfolded; endpoint: SYPRO Orange fluorescence
Compound: C[C@@H]1CN(c2ccc(-c3cc(C(=O)NCCOCCOCCOCCOCCNC(=O)/C=C/c4[nH]cc(C(=O)N[C@@H](CC(N)=O)c5ccc(F)c(Cl)c5)c4-c4ccc(Cl)cc4F)ccc3F)cc2NC(=O)c2c[nH]c(=O)cc2C(F)(F)F)C[C@H](C)N1C
WDR5: WD repeat-containing protein 5 (WDR5, Homo sapiens, UniProt P61964)
DCAF1: DDB1- and CUL4-associated factor 1 (DCAF1, Homo sapiens, UniProt Q9Y4B6)
Sequence of UniProt Q9Y4B6 (whole entry, looked up): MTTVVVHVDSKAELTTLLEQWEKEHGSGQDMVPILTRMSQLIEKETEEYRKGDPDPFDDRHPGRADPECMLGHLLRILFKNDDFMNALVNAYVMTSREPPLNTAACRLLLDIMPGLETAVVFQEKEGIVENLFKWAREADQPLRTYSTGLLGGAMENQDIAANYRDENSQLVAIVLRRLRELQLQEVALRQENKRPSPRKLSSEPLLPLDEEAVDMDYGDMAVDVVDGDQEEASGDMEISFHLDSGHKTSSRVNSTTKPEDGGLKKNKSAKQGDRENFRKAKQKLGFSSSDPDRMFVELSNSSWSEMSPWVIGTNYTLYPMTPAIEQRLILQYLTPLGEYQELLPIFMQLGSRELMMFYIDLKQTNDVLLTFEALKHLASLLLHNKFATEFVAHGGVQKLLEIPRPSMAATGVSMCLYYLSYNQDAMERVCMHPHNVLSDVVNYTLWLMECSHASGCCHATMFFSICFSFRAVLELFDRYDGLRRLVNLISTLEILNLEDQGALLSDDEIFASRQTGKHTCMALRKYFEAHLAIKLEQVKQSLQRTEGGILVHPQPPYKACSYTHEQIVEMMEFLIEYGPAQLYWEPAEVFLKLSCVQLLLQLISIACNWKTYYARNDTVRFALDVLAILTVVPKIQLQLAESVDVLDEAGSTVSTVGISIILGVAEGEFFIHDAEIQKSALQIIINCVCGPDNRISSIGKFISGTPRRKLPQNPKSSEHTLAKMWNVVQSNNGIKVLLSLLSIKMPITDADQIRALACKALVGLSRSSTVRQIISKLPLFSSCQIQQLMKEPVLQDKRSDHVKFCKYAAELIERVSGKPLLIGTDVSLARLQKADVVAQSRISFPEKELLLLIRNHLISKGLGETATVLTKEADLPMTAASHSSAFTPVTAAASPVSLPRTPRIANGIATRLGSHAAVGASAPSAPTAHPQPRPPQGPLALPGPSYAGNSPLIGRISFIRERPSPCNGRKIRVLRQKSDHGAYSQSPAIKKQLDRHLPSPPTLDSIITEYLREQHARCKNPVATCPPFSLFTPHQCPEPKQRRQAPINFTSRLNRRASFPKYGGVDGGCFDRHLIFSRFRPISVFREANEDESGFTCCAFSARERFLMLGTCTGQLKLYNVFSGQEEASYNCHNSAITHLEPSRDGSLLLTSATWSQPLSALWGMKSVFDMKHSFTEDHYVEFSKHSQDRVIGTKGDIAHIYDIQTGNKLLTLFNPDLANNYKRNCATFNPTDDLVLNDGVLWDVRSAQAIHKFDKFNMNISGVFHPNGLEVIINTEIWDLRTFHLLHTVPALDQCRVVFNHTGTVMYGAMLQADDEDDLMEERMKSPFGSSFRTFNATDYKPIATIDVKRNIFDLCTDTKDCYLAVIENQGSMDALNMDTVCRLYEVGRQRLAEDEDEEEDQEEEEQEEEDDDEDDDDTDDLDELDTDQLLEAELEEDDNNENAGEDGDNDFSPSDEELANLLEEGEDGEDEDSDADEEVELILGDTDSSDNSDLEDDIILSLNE
WDR5; 49.4 °C: 16200 a.u.
DCAF1; 50.8 °C: 15800 a.u.
DCAF1; 63.21 °C: 54600 a.u.
DCAF1; 62.61 °C: 52500 a.u.
DCAF1; 37.2 °C: 10700 a.u.
DCAF1; 30.2 °C: 9520 a.u.
WDR5; 58.21 °C: 16300 a.u.
WDR5; 59.21 °C: 15900 a.u.
DCAF1; 54.81 °C: 21100 a.u.
WDR5; 60.21 °C: 15600 a.u.
DCAF1; 42.2 °C: 12300 a.u.
